Experimental data from different studies.
Parts stem from different laboratories: compare values within a part only.

Series 1 — technique: protein-binding microarray; molecule type: double-stranded DNA, one strand shown; sample: in vitro; tested at: 2200 nM top; setting: 60-bp whole probe; with: salmon DNA 0.4 mg/ml; baseline: random background probes; reading: higher = stronger binding; all sequences stand within: GCCTAGCAC … GTCTTGATTCGCTTGACGCTGCTG
Target: Interferon regulatory factor 7, full length, phosphomimetic (IRF7, Homo sapiens, UniProt Q92985, residues 1-503, S471D/S472D/S475D/S476D/S477D/S483D/S484D/S487D)
Construct (chain): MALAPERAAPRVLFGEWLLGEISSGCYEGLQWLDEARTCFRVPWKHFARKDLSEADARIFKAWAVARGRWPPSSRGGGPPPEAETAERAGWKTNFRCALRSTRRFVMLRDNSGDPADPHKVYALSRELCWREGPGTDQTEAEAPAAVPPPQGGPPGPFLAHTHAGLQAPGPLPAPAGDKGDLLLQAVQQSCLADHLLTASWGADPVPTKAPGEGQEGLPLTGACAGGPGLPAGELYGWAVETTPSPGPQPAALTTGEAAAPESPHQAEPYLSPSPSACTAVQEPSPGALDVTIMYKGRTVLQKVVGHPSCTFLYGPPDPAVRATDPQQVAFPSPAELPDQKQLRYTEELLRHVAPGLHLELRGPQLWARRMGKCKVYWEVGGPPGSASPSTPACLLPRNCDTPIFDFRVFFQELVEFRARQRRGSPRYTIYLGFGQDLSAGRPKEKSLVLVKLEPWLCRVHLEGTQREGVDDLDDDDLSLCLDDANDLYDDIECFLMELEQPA
| Sequence | fitted relative affinity |
| --- | --- |
| TTCGAACTGAGACTGGATTAGTGCTAG | -0.222 z-score |
| GACGGACTGGGGCCTGGGGACGTGCTA | -1.07 z-score |
| GACGGTTTCGACACCGGGGACGTGCTA | 2.23 z-score |
| TTAGGAGTGGACACTGGGTTAGTGCTA | -0.625 z-score |
| GACGGACTGCTTCTCCTAACGTGCTAG | 0.567 z-score |
| TTCGATATCGGGACTGGATTAGTGCTA | 0.568 z-score |
| GACTATGCCGACTTTGGAAGTGTGCTA | -0.246 z-score |
| ACTTGTATTTGTCCCTATTTGTGCTAG | 2.33 z-score |
| TCAAATTTTAGTAACACACTGTGCTAG | -0.413 z-score |
| AGCACTCTTCTTTTTTTTCTGTGCTAG | 1.26 z-score |
| GACGATTTCAGTTCTGAGACGTGCTAG | 1.9 z-score |
| GCTCCTTCCCCTCTAGGTCTGTGCTAG | 1.54 z-score |
| AGTGTTATAATATTATTGCAGTGCTAG | 0.216 z-score |
| TTCACTTTCTTTAACTCATTGTGCTAG | 2.32 z-score |
| GACGAACTGAGTTTCGAAACGTGCTAG | 2.32 z-score |
| GACGGTTTCCTTATCCTTACGTGCTAG | 3.17 z-score |
| GACGGTTTCGACTCTGGGGACGTGCTA | 5.19 z-score |
| TCAACTTTCTTTTTTTCACTGTGCTAG | 4.99 z-score |
| TTAGGTATACTACTGCTTTAGTGCTAG | 0.453 z-score |

Series 2 — technique: RNA Bind-n-Seq; molecule type: RNA; sample: in vitro; tested at: not given; baseline: input RNA pool; reading: higher = stronger binding
Target: RING finger protein unkempt homolog, zinc fingers 1-6, GST-SBP tag (UNK, Homo sapiens, UniProt Q9C0B0, residues 30-357)
Sequence of UniProt Q9C0B0 (30-357, looked up): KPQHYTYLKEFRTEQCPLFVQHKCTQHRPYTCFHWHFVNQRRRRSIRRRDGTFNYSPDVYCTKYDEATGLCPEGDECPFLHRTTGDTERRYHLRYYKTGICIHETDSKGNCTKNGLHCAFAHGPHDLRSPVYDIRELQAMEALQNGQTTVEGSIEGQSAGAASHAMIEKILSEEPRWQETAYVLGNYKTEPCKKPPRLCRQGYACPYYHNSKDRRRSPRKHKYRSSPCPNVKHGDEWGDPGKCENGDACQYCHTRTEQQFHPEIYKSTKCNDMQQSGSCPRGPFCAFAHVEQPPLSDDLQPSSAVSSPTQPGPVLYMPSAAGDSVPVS
Setting: RNA with constant flanks, human and mouse sites, ends assumed
All sequences stand within: GGGAGUUCUACAGUCCGACGAUC … CAACAGAGGAUUGAGCAUCA
| Sequence | bound/input enrichment [ratio] |
| --- | --- |
| UUAUUAUAGCUUUGAAAUAAAAAAUCGUGAGGGAAAAAAAAUCCAAUGAUUGUACUGUGGUUAGGAGUUUUAUUACCAAGACAUUUAUGUCACUUUUCUUUCCCUUGUCAUUUUGAGGGG | 3.53 |
| CUCCGUUAUGUGCCGCUCUGGAAGGUCCAUAUUUUCACAGUCAUUCAGCUUACUUGUUUGGUCCUUUUAUGGGUGAUAAAAGUUUCAGCUGCUGCAGUGGUUUUUCCCAUGAUGGUUCUU | 0.189 |
| UUUUAUGAACGACUGGCUGGCCAUGGUCCAAAACUAGGACCUGUCACUAGAAAGCAUCCUUUAGUUACCAGGUAUUUUACUUUCCCAUUUGAAGAGAUAGACUUCUCCAUGGAAGAAUCU | 3.2 |
| UCACCAUUUGAUCAAAUGAAGACUGCUUCCAAUAUAGGUGGAUUUAAUGCAGCAAUUAAAAACAGUCCGCCUGCCAUGUCUCAGUACAUCACUGUGGGCUCCAGUCCGUUCACUGGCUUC | 0.128 |
| GCAGGUGUCAACUCUGAAAUGGUCAAGCUUUAUGACCUUCGUUCUUUUGAUAAGGGGCCAUUUGCUACCUUUAAGAUGCAGUAUGAUCGAACUUGUGAGUGGACAGGACUUAAAUUCAGC | 0.114 |
| GAAGACCACUUGGCAGUCAAGCACUUUUCUGUAGAAGGUCAGUUGGAAUUCAGGGCAUUGCUAUUUAUUCCUCGUCGGGCUCCCUUUGACCUUUUUGAGAACAAGAAGAAAAAGAACAAC | 0.103 |
| GAAUCUAGCAGCUGGGACACUUCAUGAAGGGUUUAUGUAAGUUUCCUUCCUAUGACCCAGAUGGUCAGUUACUUUAAGUUUCCAAGAGUAAUGUUGAGUUGUAUGUGUGUGUGUGGGAGU | 0.507 |
| GCUAUAUCUAGCAGUAUGGAAAUUGACCAAGGUGAAAAGAAUGAAGAUGAAACUUCUGCAGAUCUUGUAGAAACGAUUAAUGAAAAUGUUAUUGAAGAUAACAAAAGUGAGAAUAUCUUA | 0.635 |

Series 3 — technique: RNA Bind-n-Seq; molecule type: RNA; sample: in vitro; tested at: 365 nM; baseline: no-protein control; reading: higher = stronger binding
Target: RNA binding protein fox-1 homolog 2, RRM domain, GST-SBP tag (RBFOX2, Homo sapiens, UniProt O43251-10, residues 100-194)
Setting: natural RNA segment, single round, ends assumed
All sequences stand within: GGGAGUUCUACAGUCCGACGAUC … UGGAAUUCUCGGGUGCCAA
Target sequence (chain): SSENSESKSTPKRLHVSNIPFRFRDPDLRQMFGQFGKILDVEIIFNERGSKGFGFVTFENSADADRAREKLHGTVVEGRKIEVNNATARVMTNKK
| Sequence | RBNS enrichment (R) |
| --- | --- |
| UAUAAGAGUGUUAAGGACCUAAUAGAGUGACAUAUAUAAAUUAAGCAUAAAAUAUGUAACCAGGAAAAGACUGUUAACAUUACAUUUAUGCAAAUUAAAUGCCCUUAAAU | 0.344 |
| GAGGACCAUUGGCUUGCCAAGAGUACAGAAAUUCAUUAUGCUGCUAAUUUAACGUGGAAUUCCUUCAUUUCAUAAGAACCUCAAAAUAAUGGUGAUACAUUCUAGCCUUA | 0.754 |
| CUCAGCCAAGCUUGUUUCCUGCUCUGAGGCUUGUGGGGUGGGAGCCAGAGUGGAGGUCGGUGAAAUAAGUGAUGCAAUUAGACCCCACCGGCUCCUGCUUCUAAAGAGCG | 5.32 |
| UUCCCGGAAAAAAAAAAAUGCAAUAAUGGGAAUGAUUUGGGGCUUUUAUUUUUUAUUUUAAAAGAAUAUUGACUUAUUUAGCACAAGCUAUUUUUCCCUCUCUGGUGAUA | 1.21 |
| UUAAGUACAAGUUGAACAAAAAUUAUGAAAAGGUAUAUUUGCUUCUCGGGAAAGCAAAGAAGCUGCUUUAAAAAAUAAAAAGGGGACUAAAAAUUUGUUUUGUAUAAAGA | 1.01 |
| UUCAAAAAUACGGAGCAGUGCCUAGUAUCUGGAGAGCAGCACUACCAUUUAUUCUUUCAUUUAUAGUUGGGAAAGUUUUUGACGGUACUAACAAAGUGGUCGCAGGAGAU | 0.383 |
| ACAUUAAUAUUAUUAAUAUAAUAAUGGUGAUGGUGAUGAUGAAAACUGAGGACUUUAAAAGAGAUUUUCCCUUCCCAAACGUGUCUGGACAGUACCUGAUUGUAUUUUUU | 0.334 |
| AAUAGGAUUUGACCUACAUUCUGUUGCCCCUAGGUUUGUGUUAGUGUCAGAAAUACUUAAACAGUGGUAAAUGCACAUGUUACUUUUAAAUCAUUAGGAUAACUCCUGUC | 0.556 |

Series 4 — technique: universal PBM; molecule type: double-stranded DNA, one strand shown; sample: in vitro; tested at: not given; reading: higher = stronger binding
Target: Sal-like protein 4, full length isoform B (SALL4, Homo sapiens, UniProt Q9UJQ4-2, residues 1-616)
Setting: 8-mer, flanks averaged, mean of replicates
| Sequence | E-score |
| --- | --- |
| CTCGGGCA | -0.187 |
| GCGTGAGA | -0.108 |
| ATTTTCCC | 0.0981 |
| AAACCCCT | -0.25 |
| CTTTCAGA | -0.051 |
| CAAAGCAG | -0.0716 |
| CGGCCTAC | -0.148 |
| ATCAAGCG | -0.00053 |
| GCGCTCGA | -0.233 |
| ATGATGCC | 0.0397 |
| TGAACCAA | 0.154 |
| ATGGCCGC | -0.295 |
| GCACCGAC | -0.241 |
| AAAGAACA | 0.0962 |
| CGGCTTAG | -0.217 |
| CCGTTTAC | 0.0283 |
| CCCAGATA | -0.0869 |
| AACACTAA | 0.175 |
| AAGAGAAA | 0.164 |
| AGTGAAGA | 0.074 |

Series 5 — technique: protein binding microarray; molecule type: double-stranded DNA, one strand shown; sample: in vitro; tested at: not given; baseline: not given; reading: higher = stronger binding
Target: Histone acetyltransferase KAT6A, both winged helices, GST fusion (KAT6A, Homo sapiens, UniProt Q92794, residues 1-181)
Setting: 8-mer, flanks averaged, mean of 2 arrays, mostly near background
Residues (chain): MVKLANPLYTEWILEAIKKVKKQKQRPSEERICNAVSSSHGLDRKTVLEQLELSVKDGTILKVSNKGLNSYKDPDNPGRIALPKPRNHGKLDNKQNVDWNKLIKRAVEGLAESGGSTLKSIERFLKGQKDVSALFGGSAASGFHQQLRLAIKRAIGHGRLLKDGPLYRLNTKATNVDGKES
| Sequence | E-score |
| --- | --- |
| AGAAGACG | -0.0599 |
| ATTTCAAC | 0.0126 |
| CCCCGACA | 0.126 |
| CTGTGGCA | -0.218 |
| ACCTTCTG | -0.202 |
| CCTATTCC | -0.0861 |
| AACCAAGG | -0.0857 |
| GTTGTGTA | 0.00685 |
| GATAGTAC | -0.0652 |
| AGCATCAC | -0.134 |
| AAAATGTG | 0.0307 |
| CGTTCGGA | 0.206 |
| AACGAAGA | -0.0734 |
| ATATGGTC | -0.201 |
| CCACGACA | -0.0549 |
| AAATTGAA | -0.13 |
| CCCATTGA | 0.0202 |
| AGTACTCC | -0.091 |
| CGCTAGTC | 0.0863 |
| AAACTGGC | -0.126 |

Repeated from above (series 4):
| Sequence | E-score |
| --- | --- |
| CGGCCTAC | -0.148 |
| ATCAAGCG | -0.00053 |
| GCGCTCGA | -0.233 |
| ATGATGCC | 0.0397 |
| TGAACCAA | 0.154 |
| ATGGCCGC | -0.295 |
| GCACCGAC | -0.241 |
| AAAGAACA | 0.0962 |
| CGGCTTAG | -0.217 |
